# Measurements collected from several papers.
# Numbered parts are unrelated; each lists some results of a single study. Substitutions count along the parent as printed.

# Set 1 — method: universal PBM; molecule type: double-stranded DNA, one strand shown; sample: in vitro; concentration: 600 nM; reading: higher = stronger binding
# Target: Sal-like protein 4, full length isoform A (SALL4, Homo sapiens, UniProt Q9UJQ4, residues 1-1053)
# UniProt Q9UJQ4, sequence (whole entry, looked up): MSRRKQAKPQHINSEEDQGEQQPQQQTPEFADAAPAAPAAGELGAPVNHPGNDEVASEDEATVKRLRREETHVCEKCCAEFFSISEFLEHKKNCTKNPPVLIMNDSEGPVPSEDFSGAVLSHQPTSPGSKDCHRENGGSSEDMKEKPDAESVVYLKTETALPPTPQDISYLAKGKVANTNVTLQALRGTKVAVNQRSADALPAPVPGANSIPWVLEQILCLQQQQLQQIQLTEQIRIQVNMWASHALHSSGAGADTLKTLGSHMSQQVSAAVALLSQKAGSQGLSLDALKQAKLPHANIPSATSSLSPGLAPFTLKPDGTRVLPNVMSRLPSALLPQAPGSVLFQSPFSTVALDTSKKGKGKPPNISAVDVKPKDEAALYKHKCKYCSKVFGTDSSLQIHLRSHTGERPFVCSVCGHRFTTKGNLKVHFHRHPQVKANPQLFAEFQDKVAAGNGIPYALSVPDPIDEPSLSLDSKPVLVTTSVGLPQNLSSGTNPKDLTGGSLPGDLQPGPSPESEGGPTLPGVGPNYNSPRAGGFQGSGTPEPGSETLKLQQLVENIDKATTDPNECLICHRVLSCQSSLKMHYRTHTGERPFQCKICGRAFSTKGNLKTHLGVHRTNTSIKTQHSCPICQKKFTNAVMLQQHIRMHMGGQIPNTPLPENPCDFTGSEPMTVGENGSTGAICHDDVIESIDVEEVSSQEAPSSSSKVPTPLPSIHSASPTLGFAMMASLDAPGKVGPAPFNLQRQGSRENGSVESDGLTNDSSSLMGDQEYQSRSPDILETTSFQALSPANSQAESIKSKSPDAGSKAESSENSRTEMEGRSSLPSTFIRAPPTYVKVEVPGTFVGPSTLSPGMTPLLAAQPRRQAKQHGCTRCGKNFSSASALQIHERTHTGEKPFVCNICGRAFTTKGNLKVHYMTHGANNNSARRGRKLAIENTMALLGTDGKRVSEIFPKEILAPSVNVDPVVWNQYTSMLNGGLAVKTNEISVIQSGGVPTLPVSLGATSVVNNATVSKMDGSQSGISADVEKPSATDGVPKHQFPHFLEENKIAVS
# Notes: 8-mer, flanks averaged, mean of replicates
Sequence,E-score
AGGTGCTC,-0.328
AAATTAAA,0.345
CCTGCGGC,-0.428
ATACCTAC,0.142
GAAATGGC,-0.0764
ATGACGGC,-0.154
AGGGCAAT,-0.13
GTGACCTA,-0.0953
CATGGCTC,-0.156
CTTCTAGA,0.0891
GGATCTAC,-0.0134
ATGCTCCA,-0.154
ACAAACTA,0.208
AAGGTTCT,-0.00417
ACCGACGT,-0.124
AAGGCTAG,0.0756
GTCACTGA,-0.0106
CCAAGTAC,-0.0796
CAATCCAC,-0.031
CTTCGCTA,0.00398
CACGCGCG,-0.213
GGCCTGAA,-0.262
CACCGGCG,-0.265
ACTTGACT,0.0411
CGCGAGCC,-0.331

# Set 2 — method: RNAcompete; molecule type: RNA; sample: in vitro; concentration: 20 nM; notes: 7-mer, probes averaged, single round; reference: mean of 7-mers; reading: higher = stronger binding
# Target: PABPC1L2, full length, GST fusion (mouse, UniProt A0ABA7IW68)
# Target sequence (chain): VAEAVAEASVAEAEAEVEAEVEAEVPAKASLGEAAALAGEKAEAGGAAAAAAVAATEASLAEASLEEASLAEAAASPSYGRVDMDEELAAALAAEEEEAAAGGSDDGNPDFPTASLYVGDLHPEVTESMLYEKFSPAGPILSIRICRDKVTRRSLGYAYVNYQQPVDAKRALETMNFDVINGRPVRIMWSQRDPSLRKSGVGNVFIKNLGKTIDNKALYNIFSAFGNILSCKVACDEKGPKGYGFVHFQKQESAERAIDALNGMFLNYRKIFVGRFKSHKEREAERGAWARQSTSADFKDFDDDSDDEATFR
Sequence,7-mer Z-score
CCACCGG,-0.153
GAGUACG,-0.257
ACAGACC,0.0315
UUUCACC,-0.284
UGAGCCU,-0.238
GCGAAAC,0.1
CCCAGUU,-0.255
GCACGCC,-0.142
GUAUAAG,0.0261
UUGAAGC,-0.26
UUAUUCU,-0.393
UCCGAAA,0.695
GCCUCGG,-0.327
UGCUCCC,-0.17
GGCACUG,0.0732
UAGCUAC,-0.324
UGCCUUC,-0.391
GGCAUAU,0.00798

# Set 3 — method: DHFR PCA, deep sequencing; sample: yeast; with: (+)-ABA 2500 µM; reference: wild-type fitted maximum; reading: higher = stronger binding
# Target: ABI1, truncated, D143A, DHFR fusion (Arabidopsis thaliana)
# Notes: methotrexate growth selection, single substitutions
# Parent: PYL1, truncated, DHFR fusion (Arabidopsis thaliana); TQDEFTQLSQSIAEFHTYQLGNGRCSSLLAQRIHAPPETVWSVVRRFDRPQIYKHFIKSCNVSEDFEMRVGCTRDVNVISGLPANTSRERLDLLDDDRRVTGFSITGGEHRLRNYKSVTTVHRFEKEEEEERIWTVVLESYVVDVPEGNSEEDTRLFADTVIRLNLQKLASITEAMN; partner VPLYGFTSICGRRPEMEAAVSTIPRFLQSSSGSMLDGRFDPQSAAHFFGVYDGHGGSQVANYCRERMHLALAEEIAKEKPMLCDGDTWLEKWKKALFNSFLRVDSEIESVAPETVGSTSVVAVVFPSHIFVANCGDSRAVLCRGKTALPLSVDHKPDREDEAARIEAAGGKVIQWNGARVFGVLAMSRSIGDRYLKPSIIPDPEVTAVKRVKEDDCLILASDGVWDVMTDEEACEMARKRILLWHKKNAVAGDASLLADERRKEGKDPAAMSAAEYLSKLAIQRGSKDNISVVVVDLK
Change,relative binding score
E14F,76.4%
N149R,65.1%
A175N,96%
V100I,105%
L93P,22.1%
Q51I,84.5%
N149L,70.5%
E64L,93.5%
I133V,106%
D75W,95.8%
R99F,112%
A30V,101%
S26M,99.7%
T120V,36%
T119W,20.7%

# Set 4 — target: CCND1, cyclin fold, Cln2 fusion (human); method: yeast growth competition, sequencing; sample: yeast; notes: strong parent motif; reference: not given; reading: higher = stronger binding
# Parent: RBL1 docking peptide (human); GSAKRRLFGEDPP; partner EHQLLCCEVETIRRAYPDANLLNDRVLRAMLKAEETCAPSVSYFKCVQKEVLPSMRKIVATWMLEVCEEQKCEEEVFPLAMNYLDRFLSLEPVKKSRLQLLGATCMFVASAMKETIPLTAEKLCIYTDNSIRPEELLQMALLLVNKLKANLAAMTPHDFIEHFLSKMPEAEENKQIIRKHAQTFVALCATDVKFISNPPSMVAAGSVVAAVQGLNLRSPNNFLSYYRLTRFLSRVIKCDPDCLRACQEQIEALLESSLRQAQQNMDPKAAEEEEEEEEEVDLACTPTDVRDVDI
Change,normalised enrichment score
GSAKRRLFWEDPP [G9W],2.85
GSAKIRLFGEDPP [R5I],1.01
GSATRRLFGEDPP [K4T],1.18
GSANRRLFGEDPP [K4N],1.08
GSAKRRLFGEDKP [P12K],1.37
GSAKRGLFGEDPP [R6G],0.241
GSAKRRLFNEDPP [G9N],2.58
NSAKRRLFGEDPP [G1N],1.61
GSAKRRLFGVDPP [E10V],0.563
GSAKRRLFGYDPP [E10Y],0.553
GSAKRRLFGEDPM [P13M],1.23
GSAKRRLFGELPP [D11L],0.988
ESAKRRLFGEDPP [G1E],1.76
GSAKSRLFGEDPP [R5S],0.684
GSAKRYLFGEDPP [R6Y],0.818
GSAKRRLFDEDPP [G9D],2.73

# Set 5 — method: RNA Bind-n-Seq; molecule type: RNA; sample: in vitro; concentration: 365 nM; reference: no-protein control; reading: higher = stronger binding
# Target: RNA binding protein fox-1 homolog 2, RRM domain, GST-SBP tag (RBFOX2, Homo sapiens, UniProt O43251-10, residues 100-194)
# Notes: natural RNA segment, single round, ends assumed
# Constant ends, left off below: GGGAGUUCUACAGUCCGACGAUC … UGGAAUUCUCGGGUGCCAA
# Construct (chain): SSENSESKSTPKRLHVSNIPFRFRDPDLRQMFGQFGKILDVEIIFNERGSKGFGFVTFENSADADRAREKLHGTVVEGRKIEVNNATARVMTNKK
Sequence,RBNS enrichment (R)
GGCUGGAGAAAGGAAGGAAGCAGUGGUUUCCUUAGAUAACUACAGAAUUAUACUGGUCUCUGGGAUUACUCUCUCAGCUGUAUUAAAAUGAAUUUGUACUUUGAAAGGAA,0.614
UCCUAGGACCUUAAGAGAAUAGUAGGAGGUCCUAUAGCAUUCCCAGUGUCACUAGAAUUUUGAAGACAGGAAAGUGGAGGUUAGUCUGUGGCCUUUUUUUCAUUUAGCCA,0.605
CAGGAUGUAUAAUUUAUCUGUCUACUCAGAAUAUUAAUUUGUAAAUUCUGCAAGGUUAAUUUUAUGUAAUGGUAUAACUUUUGAAAUUAUUGUCUUAUGUUAUUUGUUUU,0.934
GUGCUGGAAGCUGUUUGCACCUUUGUCAGGACACUGCGUUUCAGAAGCCACUGUUCCCUCUGGUGGCUUUUACAUGUCGGUGGCUGGCAUACCAUAUAGUAACAGCAGUA,0.329
CUUUUCGAAGCUGUUAAUUUUUCUUAGUGUUGUGGACACUGCAGACUUGUCCAGUGCUCCCACGGCCUGUACGGACACUGUGGAAGGCCUCCCUCUGUCGGCUUUUUGCC,0.507
AGCUGUGAUUGAGUGUGCUAUUAUUUGGAAGGAGAAAAUGUAAAUUGAGAUAGCUGUAGUGUUUAUGCCAGAAGUCUCUGGGGACAUCUACUGCUUGUGUCUCUUUGGUG,2.75
CAAUUUGGAAUCAGAAAGCUGGAUUCUGGUAAAUGGUCUUGUGCCCUUUAUCCUACUCAUCCCCGAUCUGGUCCCCUGUUCUCCAUAGUCCUUCACCCCCAAGCACCACU,0.244
UAAGCGAAUAUAUUAUAAUAUGUAUAGAGCGCCUUUUGUGUAAGUCACUGGUCAGAAUCCUCACUGAGCUCCCAGUCCAGAGAGAAGCCAGACAAUUAAAACAGUAAUGA,0.403
UAUCUAGUCCAAACAAUAGAGUUUAUUUUUUCUUCAUCUGAACCAACAUGCUACAGUAGCUAAGAAGUAUUAAAACUAUAUACAUCCAUAUAAAGAUGAAAUAUGAACUA,0.318
UUUUGUUUUCUUUUUUCCUUUAAAGAGAAUUUUUGUUUUGUUUUGAUUCUGUUCUCGCUUUUAAAGGAUGCUGAGAUGGUGAUGUUACUCUCCAUUUUUGGUACCAGUUC,0.806
GGAAAAUCCCAUUUUAUAGAUAGAGGUGCAAUCACAUAAAAAUGUGGCCAGGCAGGAUUAAAGGUAUUCUAAAUCCUUACCACGGGGCAUUUUCUGGAUGCAAAGGCACU,0.366
CAGUCGAUAAGGCUGAGUCGGGGAGGCUCAGACCAUUGAGGCUUGAAAUUGCAAAACUCUUGUAGCUCAUUCUGAAAUCUUUCCCCUGUAGUCCAGAACUGGGGAGGCCA,0.418

# Set 6 — method: protein binding microarray; molecule type: double-stranded DNA, one strand shown; sample: in vitro; concentration: not given; reference: not given; reading: higher = stronger binding
# Target: Histone acetyltransferase KAT6A, both winged helices, GST fusion (KAT6A, Homo sapiens, UniProt Q92794, residues 1-181)
# Notes: 8-mer, flanks averaged, mean of 2 arrays, mostly near background
# Target sequence (chain): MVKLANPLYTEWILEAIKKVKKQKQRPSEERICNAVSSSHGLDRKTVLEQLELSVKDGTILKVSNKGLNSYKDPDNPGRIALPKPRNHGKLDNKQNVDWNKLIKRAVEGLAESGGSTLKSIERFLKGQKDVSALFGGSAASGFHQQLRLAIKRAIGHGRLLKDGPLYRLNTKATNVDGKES
Sequence,E-score
AATCAGTA,-0.024
AGGCTAGG,-0.25
GCATAGCA,-0.0328
AGATACCG,0.217
GTGGTTCA,-0.00108
CAATACAA,-0.0907
GAAGCTTA,-0.126
CGGGGGGA,-0.0851
GAGGGCAA,-0.095
GTTTAATA,-0.0329
TAAGCGGA,0.0978
AACGTGTA,-0.088
CATATGCG,0.195
ACAGTTAA,0.00965
TCCGACCA,0.182
ATTCAGGC,-0.124
ATCTGGTC,-0.105
